Experimental data collected from several papers.
Numbered parts are unrelated; each lists some results of a single study.
UniProt P62344, sequence (whole entry, looked up): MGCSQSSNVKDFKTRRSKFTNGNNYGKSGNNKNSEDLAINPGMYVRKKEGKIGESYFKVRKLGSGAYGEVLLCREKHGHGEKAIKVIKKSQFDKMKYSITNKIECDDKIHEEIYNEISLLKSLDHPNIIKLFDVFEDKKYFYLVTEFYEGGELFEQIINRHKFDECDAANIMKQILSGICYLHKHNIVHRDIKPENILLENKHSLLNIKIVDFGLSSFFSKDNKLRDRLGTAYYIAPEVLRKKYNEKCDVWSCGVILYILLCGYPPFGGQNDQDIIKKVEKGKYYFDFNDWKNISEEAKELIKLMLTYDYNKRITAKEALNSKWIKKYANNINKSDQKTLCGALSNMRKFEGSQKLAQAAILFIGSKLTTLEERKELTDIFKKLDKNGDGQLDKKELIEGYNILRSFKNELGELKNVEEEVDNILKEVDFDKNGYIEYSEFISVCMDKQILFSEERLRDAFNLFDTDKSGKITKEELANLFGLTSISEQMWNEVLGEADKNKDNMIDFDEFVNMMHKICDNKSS
UniProt P28566, sequence (whole entry, looked up): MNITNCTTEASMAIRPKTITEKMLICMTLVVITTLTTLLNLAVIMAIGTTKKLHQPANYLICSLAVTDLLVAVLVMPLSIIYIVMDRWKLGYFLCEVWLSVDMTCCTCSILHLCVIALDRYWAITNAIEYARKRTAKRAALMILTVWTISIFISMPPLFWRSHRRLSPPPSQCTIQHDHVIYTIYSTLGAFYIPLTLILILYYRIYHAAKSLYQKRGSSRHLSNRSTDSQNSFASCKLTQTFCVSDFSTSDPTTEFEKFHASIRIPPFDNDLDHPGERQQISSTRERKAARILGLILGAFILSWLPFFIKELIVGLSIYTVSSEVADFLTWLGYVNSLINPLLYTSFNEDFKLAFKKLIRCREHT
UniProt P61075, sequence (whole entry, looked up): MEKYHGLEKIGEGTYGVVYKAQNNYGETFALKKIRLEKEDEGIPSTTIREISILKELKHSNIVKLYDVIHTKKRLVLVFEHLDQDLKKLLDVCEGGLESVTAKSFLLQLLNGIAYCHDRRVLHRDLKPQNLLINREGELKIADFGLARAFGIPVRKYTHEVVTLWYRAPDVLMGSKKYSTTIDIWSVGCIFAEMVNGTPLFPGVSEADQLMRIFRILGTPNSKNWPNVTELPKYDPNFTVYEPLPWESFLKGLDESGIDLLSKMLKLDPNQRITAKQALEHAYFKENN
UniProt Q9UQM7, sequence (whole entry, looked up): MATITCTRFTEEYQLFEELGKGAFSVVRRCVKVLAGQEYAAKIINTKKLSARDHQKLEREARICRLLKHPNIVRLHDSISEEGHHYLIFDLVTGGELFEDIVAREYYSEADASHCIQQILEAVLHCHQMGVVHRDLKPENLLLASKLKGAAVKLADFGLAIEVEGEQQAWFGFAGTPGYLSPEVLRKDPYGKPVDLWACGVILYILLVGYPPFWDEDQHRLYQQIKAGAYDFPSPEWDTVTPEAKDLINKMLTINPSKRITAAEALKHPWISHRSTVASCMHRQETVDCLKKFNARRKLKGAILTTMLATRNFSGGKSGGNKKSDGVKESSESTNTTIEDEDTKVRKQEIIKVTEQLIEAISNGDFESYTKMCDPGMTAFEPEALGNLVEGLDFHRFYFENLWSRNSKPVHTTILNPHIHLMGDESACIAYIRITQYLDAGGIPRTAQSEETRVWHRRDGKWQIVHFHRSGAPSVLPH
UniProt P9WI81, sequence (whole entry, looked up): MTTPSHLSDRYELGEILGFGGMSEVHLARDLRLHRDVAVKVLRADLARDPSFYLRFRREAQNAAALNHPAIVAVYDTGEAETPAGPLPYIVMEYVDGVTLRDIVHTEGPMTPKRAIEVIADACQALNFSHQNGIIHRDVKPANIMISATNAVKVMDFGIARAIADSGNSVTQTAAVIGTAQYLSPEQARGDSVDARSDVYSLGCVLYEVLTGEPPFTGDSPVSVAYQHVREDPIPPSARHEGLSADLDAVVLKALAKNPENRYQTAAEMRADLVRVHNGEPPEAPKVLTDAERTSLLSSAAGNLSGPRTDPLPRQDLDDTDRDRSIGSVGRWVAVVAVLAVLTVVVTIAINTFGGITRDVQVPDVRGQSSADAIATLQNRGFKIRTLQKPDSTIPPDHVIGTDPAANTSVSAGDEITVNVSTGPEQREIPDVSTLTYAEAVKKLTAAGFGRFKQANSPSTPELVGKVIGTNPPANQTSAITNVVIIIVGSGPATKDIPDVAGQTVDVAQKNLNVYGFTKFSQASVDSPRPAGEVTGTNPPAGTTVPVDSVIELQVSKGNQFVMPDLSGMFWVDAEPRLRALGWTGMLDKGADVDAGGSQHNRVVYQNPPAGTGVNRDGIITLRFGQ

Series 1
Cell line: mouse MPNST tumor cells
Technique: high-content nuclear imaging
Measured: cell number
Concentration: 10 µM
Time: 12 h
Notes: mean of 2 replicates
Baseline: plate mean
Reading: higher = more cells
`CC(C)=CCCN1CCC(NC(=O)[C@](O)(c2ccccc2)C2CCCC2)CC1` gave a nuclei count of 0.738 z-score.
`CC(=O)Nc1ccc(Cc2ccc(NC(C)=O)cc2)cc1` has a nuclei count of 3.36 z-score.
With `O=C(c1ccc(-c2cccc(C(F)(F)F)c2)o1)N1CCN2CCC1CC2` the nuclei count was 2.31 z-score.
The nuclei count of `CC(=O)OC1CN2CCC1CC2` (stereo not drawn) is reported as 0.585 z-score.

Series 2
Target: DNA polymerase theta, ATPase domain (POLQ, Homo sapiens, UniProt O75417)
UniProt O75417, sequence (whole entry, unmodified, looked up): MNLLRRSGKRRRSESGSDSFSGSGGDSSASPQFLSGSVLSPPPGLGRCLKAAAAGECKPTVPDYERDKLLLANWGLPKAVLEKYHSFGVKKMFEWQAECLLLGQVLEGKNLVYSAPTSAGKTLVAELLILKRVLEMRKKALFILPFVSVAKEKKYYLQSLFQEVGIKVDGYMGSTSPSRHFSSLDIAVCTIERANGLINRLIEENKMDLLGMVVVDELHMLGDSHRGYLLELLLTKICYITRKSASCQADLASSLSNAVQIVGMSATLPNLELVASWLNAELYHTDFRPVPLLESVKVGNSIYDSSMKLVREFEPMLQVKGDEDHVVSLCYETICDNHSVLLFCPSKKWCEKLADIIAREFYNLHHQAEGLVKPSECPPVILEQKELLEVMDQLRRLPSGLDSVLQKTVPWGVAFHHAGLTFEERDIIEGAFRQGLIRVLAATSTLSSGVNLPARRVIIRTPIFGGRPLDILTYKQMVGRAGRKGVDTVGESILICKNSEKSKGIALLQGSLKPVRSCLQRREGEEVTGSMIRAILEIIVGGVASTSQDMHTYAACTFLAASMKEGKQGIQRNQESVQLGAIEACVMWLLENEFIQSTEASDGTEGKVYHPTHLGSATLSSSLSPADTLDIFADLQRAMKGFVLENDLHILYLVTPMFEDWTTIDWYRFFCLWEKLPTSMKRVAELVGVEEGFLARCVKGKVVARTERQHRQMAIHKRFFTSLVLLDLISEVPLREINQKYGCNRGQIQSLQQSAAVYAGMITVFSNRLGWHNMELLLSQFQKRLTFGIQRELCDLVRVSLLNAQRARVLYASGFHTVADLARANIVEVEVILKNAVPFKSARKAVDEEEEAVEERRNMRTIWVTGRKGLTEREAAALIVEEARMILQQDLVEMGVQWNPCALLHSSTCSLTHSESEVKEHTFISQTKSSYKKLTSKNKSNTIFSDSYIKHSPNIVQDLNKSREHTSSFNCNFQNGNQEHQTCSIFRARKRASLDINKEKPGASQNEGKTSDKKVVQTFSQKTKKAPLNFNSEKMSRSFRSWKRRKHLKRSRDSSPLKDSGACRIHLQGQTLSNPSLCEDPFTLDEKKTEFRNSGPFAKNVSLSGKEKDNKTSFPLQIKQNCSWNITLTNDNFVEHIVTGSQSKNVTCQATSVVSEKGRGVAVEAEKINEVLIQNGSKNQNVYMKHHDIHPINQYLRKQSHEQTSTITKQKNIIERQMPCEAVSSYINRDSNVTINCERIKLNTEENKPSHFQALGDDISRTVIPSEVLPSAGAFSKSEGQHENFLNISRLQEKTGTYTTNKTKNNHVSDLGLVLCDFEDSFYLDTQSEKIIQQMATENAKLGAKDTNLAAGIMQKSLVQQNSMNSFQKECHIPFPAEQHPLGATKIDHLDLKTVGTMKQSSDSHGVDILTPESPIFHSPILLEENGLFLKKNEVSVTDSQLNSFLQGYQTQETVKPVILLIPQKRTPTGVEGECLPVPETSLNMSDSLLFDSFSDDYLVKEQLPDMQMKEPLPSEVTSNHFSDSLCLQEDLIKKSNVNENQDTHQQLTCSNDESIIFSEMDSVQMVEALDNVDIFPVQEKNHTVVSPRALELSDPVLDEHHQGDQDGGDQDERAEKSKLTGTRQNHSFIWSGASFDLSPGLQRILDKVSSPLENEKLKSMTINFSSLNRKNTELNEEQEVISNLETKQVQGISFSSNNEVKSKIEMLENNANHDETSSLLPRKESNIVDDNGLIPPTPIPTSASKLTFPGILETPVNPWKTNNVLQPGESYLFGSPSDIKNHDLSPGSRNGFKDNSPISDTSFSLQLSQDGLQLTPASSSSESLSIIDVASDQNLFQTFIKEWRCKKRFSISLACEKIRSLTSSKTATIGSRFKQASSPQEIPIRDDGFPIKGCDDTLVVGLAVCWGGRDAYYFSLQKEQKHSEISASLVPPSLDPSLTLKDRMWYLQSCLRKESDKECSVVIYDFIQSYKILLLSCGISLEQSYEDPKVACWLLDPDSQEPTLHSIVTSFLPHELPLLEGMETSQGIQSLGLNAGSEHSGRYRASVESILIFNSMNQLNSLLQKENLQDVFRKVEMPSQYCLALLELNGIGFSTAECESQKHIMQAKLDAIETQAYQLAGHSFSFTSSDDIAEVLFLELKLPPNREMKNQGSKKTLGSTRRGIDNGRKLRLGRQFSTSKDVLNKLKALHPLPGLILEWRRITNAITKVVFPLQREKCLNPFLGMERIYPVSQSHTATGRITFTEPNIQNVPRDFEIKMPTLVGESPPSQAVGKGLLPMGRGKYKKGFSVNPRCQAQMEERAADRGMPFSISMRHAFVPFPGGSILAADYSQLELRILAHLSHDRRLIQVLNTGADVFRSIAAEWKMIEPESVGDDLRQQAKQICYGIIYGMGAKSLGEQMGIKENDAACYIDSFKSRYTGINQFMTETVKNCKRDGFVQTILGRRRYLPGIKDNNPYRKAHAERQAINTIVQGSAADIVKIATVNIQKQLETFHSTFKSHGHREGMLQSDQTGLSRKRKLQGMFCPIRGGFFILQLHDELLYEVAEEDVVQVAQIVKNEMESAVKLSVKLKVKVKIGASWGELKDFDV
Read-out: enzyme activity
Mode: inhibitor
Concentration: 77 µM
Baseline: untreated
The remaining activity of `C=C1C[C@@H]2[C@H](CC[C@]3(C)C(=O)CC[C@@H]23)[C@@]2(C)C=CC(=O)C=C12` is reported as 108%.
For `NC(=O)CN1CC(O)CC1=O` (stereo not drawn), the remaining activity was 99.5%.
`O=S1(=O)N(CCN2CC=C(c3c[nH]c4cc(F)ccc34)CC2)c2cccc3c2N1CCC3` gave a remaining activity of 102%.

Further values, each from its own experiment
`N#CC1(c2ccccn2)CCN(Cc2cc(C(=O)N3CCCC3)c(=O)n3ccccc23)CC1` gave a remaining binding of 100% (CRK2 (Plasmodium falciparum, UniProt P61075); cell-free assay, competition with immobilised ligand; 1 µM).
`C=C[C@H]1CN2CC[C@]3(C(=O)Nc4ccccc43)[C@@H]2C[C@@H]1/C(=C\OC)C(=O)OC` gave an inhibition of -77% (CAMK2A (Homo sapiens, UniProt Q9UQM7); enzyme activity, inhibitor; 10 µM).
With `CCS(=O)(=O)c1cc2cc(C[C@](O)(CC(C)(C)c3ccc(F)cc3C(N)=O)C(F)(F)F)[nH]c2cn1` the remaining binding was 95% (pknB (Mycobacterium tuberculosis, UniProt P9WI81); cell-free assay, competition with immobilised ligand; 1 µM).
`CNC(=N)NCCC[C@H](NC(=O)[C@H](CC(C)C)NC(=O)NNC(=O)[C@H](Cc1ccccc1)NC(=O)[C@H](CO)NC(=O)[C@H](CC(N)=O)NC(=O)[C@@H](Cc1ccncc1)NC(=O)[C@H](N)Cc1ccc(O)cc1)C(=O)N[C@@H](Cc1ccccc1)C(N)=O` gave an inhibition of 24.1% (HTR1E (Homo sapiens, UniProt P28566); ligand displacement, radioligand; 10 µM).
For `O=C(NCCCC1CCCCC1)c1ccc(CNC(=O)c2cnn(-c3ccccc3)c2C(F)(F)F)cc1`, the remaining binding was 100% (CDPK1 (Plasmodium falciparum, UniProt P62344); cell-free assay, competition with immobilised ligand; 0.1 µM).

Repeated from above (series 1):
The nuclei count of `CC(=O)OC1CN2CCC1CC2` (stereo not drawn) is reported as 0.585 z-score.
